Measurements pooled from the literature.
Numbered parts are unrelated; each lists some results of a single study. Changes are numbered by the printed parent chain.

Set 1 — technique: protein-binding microarray; form: double-stranded DNA, one strand shown; sample: in vitro; tested at: 940 nM top; setting: 60-bp whole probe; added: salmon DNA 0.4 mg/ml; baseline: random background probes; reading: higher = stronger binding; endpoint: fitted relative affinity; shared flanks, not repeated: GCCTAGCAC … GTCTTGATTCGCTTGACGCTGCTG
Target: Interferon regulatory factor 5, full length, phosphomimetic (IRF5, Homo sapiens, UniProt Q13568-2, residues 1-514, S451D/S453D/S456D/S462D)
TTAGATTTCAGTTCCGATCAGTGCTAG: 1.87 z-score
AGGCTTTTTTTTTTTTTTTTGTGCTAG: 0.754 z-score
TTAGGTTTACTTCTCCTTTAGTGCTAG: 0.508 z-score
TTAGATTTCAATCTCGATTAGTGCTAG: 1.23 z-score
TTAGGTAACGGTCTCGGTTAGTGCTAG: 1.78 z-score
TTAGGTCTCCTTATCCTTTTGTGCTAG: 0.386 z-score
GTAGAACTGAGTCTCGATTAGTGCTAG: 2.24 z-score
GGCGATTTCGGGACTGGAGACGTGCTA: 0.0708 z-score
TCAAGCCTCTGCATTCCCACTGTGCTA: -0.0712 z-score
TCATCTTGCAGTATGGAACTGTGCTAG: -0.102 z-score
TTAGGTTCCCTACTGCTTTAGTGCTAG: 0.112 z-score
ATAGGTTTCTATATTTGCTTGTGCTAG: 3.9 z-score
GACGGTATCGACTATCGGCACGTGCTA: 4.54 z-score
TCAGTTTTCAGTTTCACACTGTGCTAG: 3.29 z-score
GACGGACTGCTTCTCCTGCCGTGCTAG: -0.196 z-score
TTAGATTGCGGGTTTCGATTAGTGCTA: 5.96 z-score
TTAGATTTCGGGAGTGGATTAGTGCTA: 1.13 z-score
TTATATATCAGTTTCGATTAGTGCTAG: 8.58 z-score
ATATTGATGGCTCTCTGGACGTGCTAG: -0.178 z-score

Set 2 — target: CCNE1, cyclin fold, Cln2 fusion (human); technique: yeast growth competition, sequencing; sample: yeast; setting: weak parent motif; baseline: not given; reading: higher = stronger binding; endpoint: normalised enrichment score
Starting sequence: SLBP docking peptide (human); ARYKRKLLINDFG
A1T: 1.26
D11H: 0.459
G13H: 0.429
R2A: -0.000424
R5Y: -0.0393
R5K L8F: 0.531
L8A: 0.438
R2Y: 1.25
G13R: -0.0701
R5E: 0.618
K4E: -0.192
K4W: 1.95
L8G: 0.768
F12H: 0.0467
R2E: 0.735
Y3A: 1.22
K4M: 0.983
G13T: -0.111
N10M: 0.544
F12N: 0.134
A1F: -0.101
A1C: 0.41
D11M: 2.18
R2P: 0.715
K6L: 0.924

Set 3 — technique: aptamer microarray, sandwich; form: DNA with 2'F-ANA; sample: in vitro; tested at: 200 nM; added: Cy3 exosite-II aptamer, 400 nM; reading: higher = stronger binding; endpoint: mean fluorescence intensity; oligonucleotide: GGTTGGTGTGGTTGG
Target: Prothrombin, mature alpha-thrombin (F2, Homo sapiens, UniProt P00734)
Setting: whole 15-mer aptamer, many near background
2'F-ANA at 1 2 4 6 8 10 11 12 13 14 15: 46.6 a.u.
2'F-ANA at 1 2 7 10 11 12 13: 78.3 a.u.
2'F-ANA at 1 2 3 5 7 10 13: 47.8 a.u.
2'F-ANA at 3 6 9 10 11 13 14: 357 a.u.
2'F-ANA at 1 3 4 5 7 8 12 13 14 15: 45 a.u.
2'F-ANA at 2 4 5 6 7 8 11 12 13 14 15: 60.5 a.u.
2'F-ANA at 5 7 8 9 10 11 13 15: 72 a.u.
2'F-ANA at 1 9 10 12 14: 54.6 a.u.
2'F-ANA at 1 3 4 5 9 10 11 12 14 15: 48.6 a.u.
2'F-ANA at 2 3 4 5 9 11 12 13 14: 49.2 a.u.
2'F-ANA at 1 2 4 6 9 10 11 15: 60.7 a.u.
2'F-ANA at 2 3 4 10 12 15: 321 a.u.
2'F-ANA at 1 2 3 5 6 9 10 11 12 13 15: 115 a.u.
2'F-ANA at 3 5 9 10 13 15: 66.8 a.u.
2'F-ANA at 1 6 7 8 12 14 15: 80.7 a.u.
2'F-ANA at 3 6 8: 1120 a.u.
2'F-ANA at 1 2 3 4 7 8 11 13 15: 192 a.u.
2'F-ANA at 3 4 5 7 10 11 14: 47.1 a.u.
2'F-ANA at 2 7 10 13 15: 123 a.u.
2'F-ANA at 1 2 3 4 6 7 8 9 10 14 15: 61.7 a.u.
2'F-ANA at 2 3 6 11 14 15: 441 a.u.
2'F-ANA at 4 5 6 8 11 12 14 15: 46 a.u.
2'F-ANA at 1 3 4 9 12 13: 265 a.u.
2'F-ANA at 3 4 6 9 10 12 13 14 15: 161 a.u.
2'F-ANA at 2 4 5 6 7 12 14 15: 49.6 a.u.

Set 4 — technique: DHFR PCA, deep sequencing; sample: yeast; added: (+)-ABA 0.39 µM; baseline: wild-type fitted maximum; reading: higher = stronger binding; endpoint: relative binding score
Target: ABI1, truncated, D143A, DHFR fusion (Arabidopsis thaliana)
Setting: methotrexate growth selection, single substitutions
Starting sequence: PYL1, truncated, DHFR fusion (Arabidopsis thaliana); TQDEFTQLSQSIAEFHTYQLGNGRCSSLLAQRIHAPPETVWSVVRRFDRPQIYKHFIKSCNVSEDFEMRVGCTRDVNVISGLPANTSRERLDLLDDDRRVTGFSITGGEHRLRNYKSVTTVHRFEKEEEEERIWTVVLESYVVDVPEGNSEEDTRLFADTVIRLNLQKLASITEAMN
E64F: 9.05%
V118P: -6.56%
G71S: -7.54%
Q31T: -7.68%
S80M: 44.1%
S171W: 9.25%
H110L: 12.4%
I79T: 23.1%
K116G: -3.57%
M176C: 8.25%
M68T: 10.9%
S59V: 5.04%
F47R: -12%
T86I: 38.5%
S150R: 5.9%

A few entries again (set 3):
2'F-ANA at 1 3 4 5 7 8 12 13 14 15: 45 a.u.
2'F-ANA at 2 4 5 6 7 8 11 12 13 14 15: 60.5 a.u.
2'F-ANA at 5 7 8 9 10 11 13 15: 72 a.u.
2'F-ANA at 1 9 10 12 14: 54.6 a.u.
2'F-ANA at 1 3 4 5 9 10 11 12 14 15: 48.6 a.u.
